Measured values gathered from unrelated publications.
Parts stem from different laboratories: compare values within a part only. Values joined by “and” are separate records of one study, mostly repeats; a detail may differ.
Sequence of UniProt Q15349 (whole entry, looked up): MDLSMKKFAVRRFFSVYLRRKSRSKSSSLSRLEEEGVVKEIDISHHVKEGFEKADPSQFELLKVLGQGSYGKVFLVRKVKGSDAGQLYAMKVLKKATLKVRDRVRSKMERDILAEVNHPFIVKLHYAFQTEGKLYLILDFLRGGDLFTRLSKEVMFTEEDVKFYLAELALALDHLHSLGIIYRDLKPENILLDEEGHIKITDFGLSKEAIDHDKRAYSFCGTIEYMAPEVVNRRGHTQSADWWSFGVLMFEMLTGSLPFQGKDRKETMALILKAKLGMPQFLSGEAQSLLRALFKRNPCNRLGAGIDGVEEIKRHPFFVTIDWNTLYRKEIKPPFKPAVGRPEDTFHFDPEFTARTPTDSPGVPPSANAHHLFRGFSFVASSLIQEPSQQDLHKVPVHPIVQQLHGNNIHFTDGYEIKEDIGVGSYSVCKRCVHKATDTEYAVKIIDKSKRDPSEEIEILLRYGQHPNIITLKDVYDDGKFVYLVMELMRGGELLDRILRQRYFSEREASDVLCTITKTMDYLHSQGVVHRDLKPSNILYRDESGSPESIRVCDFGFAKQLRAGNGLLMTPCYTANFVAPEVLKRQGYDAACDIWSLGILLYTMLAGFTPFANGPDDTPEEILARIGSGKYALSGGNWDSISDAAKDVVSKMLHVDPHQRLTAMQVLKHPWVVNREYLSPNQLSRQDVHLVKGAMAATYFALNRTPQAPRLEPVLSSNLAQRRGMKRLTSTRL
Sequence of UniProt Q9H4A3 (whole entry, looked up): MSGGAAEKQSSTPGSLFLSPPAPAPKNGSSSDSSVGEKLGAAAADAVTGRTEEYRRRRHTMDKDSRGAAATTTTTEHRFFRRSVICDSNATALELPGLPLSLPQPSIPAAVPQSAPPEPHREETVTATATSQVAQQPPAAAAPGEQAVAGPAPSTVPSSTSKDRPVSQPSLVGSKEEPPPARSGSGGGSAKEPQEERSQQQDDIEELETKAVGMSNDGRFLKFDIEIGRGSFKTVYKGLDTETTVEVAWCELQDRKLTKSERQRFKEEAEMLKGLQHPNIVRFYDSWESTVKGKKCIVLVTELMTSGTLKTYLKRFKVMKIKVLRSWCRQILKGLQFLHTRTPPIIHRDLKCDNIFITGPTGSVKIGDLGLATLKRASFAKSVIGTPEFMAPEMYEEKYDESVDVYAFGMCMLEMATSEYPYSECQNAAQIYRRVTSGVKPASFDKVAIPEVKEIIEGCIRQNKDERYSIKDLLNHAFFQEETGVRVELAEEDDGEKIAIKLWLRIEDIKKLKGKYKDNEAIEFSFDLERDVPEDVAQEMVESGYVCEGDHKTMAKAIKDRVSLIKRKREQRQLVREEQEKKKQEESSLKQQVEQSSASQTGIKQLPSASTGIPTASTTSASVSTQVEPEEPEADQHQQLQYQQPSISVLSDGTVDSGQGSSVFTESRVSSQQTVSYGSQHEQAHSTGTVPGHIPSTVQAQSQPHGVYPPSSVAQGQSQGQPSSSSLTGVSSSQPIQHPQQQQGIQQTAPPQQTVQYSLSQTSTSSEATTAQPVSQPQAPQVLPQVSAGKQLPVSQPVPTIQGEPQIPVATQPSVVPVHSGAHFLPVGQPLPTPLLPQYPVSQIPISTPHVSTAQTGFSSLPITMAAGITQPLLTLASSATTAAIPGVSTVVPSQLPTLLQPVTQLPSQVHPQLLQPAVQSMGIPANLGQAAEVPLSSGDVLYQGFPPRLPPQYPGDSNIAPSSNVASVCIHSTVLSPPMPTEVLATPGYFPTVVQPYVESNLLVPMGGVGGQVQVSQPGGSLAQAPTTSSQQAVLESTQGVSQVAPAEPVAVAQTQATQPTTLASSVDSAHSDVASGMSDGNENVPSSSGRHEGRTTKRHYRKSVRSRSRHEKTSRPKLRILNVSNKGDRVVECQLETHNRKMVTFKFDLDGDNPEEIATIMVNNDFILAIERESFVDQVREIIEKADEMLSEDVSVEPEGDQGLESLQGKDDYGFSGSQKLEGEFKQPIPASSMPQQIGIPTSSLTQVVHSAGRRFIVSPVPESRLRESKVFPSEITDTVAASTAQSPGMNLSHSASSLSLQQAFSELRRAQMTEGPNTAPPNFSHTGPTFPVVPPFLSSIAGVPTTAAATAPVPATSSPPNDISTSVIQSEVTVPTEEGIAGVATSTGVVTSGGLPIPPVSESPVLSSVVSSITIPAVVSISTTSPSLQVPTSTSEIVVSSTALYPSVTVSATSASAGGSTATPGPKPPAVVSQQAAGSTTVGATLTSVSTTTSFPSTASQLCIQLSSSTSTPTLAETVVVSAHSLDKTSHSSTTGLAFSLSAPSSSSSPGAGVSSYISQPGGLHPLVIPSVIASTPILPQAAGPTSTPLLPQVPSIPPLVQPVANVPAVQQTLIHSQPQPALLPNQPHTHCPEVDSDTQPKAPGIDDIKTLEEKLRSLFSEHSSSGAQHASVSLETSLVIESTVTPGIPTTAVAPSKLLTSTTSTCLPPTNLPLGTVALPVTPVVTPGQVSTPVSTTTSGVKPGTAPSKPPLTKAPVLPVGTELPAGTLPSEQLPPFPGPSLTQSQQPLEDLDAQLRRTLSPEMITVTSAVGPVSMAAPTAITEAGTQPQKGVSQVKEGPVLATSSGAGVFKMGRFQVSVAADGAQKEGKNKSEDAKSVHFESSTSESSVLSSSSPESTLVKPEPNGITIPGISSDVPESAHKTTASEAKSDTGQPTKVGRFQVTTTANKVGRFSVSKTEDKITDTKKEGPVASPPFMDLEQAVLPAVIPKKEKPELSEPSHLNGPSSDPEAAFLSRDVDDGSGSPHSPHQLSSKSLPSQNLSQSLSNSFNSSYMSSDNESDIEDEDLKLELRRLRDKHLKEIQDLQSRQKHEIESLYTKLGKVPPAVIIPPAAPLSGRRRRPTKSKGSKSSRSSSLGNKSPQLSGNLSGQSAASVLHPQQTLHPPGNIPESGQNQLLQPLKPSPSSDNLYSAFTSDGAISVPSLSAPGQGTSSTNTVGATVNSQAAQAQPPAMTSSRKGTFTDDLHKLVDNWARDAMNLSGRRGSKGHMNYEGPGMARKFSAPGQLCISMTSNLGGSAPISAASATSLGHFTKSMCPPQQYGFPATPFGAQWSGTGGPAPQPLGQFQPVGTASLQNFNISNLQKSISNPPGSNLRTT
Sequence of UniProt O15530 (whole entry, looked up): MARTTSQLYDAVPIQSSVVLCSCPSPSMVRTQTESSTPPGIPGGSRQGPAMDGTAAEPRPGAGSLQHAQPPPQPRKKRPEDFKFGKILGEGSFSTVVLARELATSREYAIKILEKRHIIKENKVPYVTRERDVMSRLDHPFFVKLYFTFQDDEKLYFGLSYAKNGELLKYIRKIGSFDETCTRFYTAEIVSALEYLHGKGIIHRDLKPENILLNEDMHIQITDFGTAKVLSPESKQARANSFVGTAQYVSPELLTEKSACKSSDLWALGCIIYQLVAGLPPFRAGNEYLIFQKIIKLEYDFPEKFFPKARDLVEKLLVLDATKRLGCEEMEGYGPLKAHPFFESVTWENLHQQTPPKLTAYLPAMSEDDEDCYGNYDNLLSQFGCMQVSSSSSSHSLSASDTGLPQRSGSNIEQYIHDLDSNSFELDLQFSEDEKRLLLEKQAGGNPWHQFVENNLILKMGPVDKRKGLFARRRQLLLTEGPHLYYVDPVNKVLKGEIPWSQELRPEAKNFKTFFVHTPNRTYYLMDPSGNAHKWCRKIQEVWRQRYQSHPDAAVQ
Sequence of UniProt P78362 (whole entry, looked up): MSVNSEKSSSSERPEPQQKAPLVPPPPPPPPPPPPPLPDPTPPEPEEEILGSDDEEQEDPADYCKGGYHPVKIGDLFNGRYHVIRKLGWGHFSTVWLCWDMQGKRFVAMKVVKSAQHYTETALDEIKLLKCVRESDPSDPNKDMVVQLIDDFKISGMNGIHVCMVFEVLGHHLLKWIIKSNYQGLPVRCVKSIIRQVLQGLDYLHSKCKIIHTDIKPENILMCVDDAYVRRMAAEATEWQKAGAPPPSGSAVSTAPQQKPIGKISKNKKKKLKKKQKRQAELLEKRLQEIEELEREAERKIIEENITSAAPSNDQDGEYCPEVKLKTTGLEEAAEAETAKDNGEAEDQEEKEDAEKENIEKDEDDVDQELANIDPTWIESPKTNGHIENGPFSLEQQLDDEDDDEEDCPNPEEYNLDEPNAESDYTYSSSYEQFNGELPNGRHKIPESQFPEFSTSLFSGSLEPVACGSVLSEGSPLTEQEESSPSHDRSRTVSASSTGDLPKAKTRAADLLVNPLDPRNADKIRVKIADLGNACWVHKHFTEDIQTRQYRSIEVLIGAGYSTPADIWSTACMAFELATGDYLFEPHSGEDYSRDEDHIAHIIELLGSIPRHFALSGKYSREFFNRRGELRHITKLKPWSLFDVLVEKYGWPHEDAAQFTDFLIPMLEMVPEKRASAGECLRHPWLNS

Set 1
Cell line: normal-adjacent epithelium patient-derived organoids sample H
Method: CellTiter-Glo
Concentration: 1 µM
Relative to: DMSO
Structure (SMILES) | viability
Cc1ccc(NC(=O)Nc2cc(C(F)(F)F)ccc2F)cc1Nc1ccc2c(c1)NC(=O)/C2=C\c1ccc[nH]1 | 25.5%
CN1CCN(Cc2cc(NC(=O)c3ccc4c(c3)CN(c3ccccc3)CC4)cc(C(F)(F)F)c2)CC1 | 91.8% and 53%
COCc1nc2cnc3cc(-c4c(C)noc4C)c(OC[C@H]4CCNC4)cc3c2n1[C@H](C)c1ccccc1 | 91.4%
CCNC(=O)c1cc2c(N3CCOC[C@H]3C)ccnc2n1C | 118% and 109%
CCCCNc1ncc(-c2ccc(CN3CCOCC3)cn2)c(NC2CCC(O)CC2)n1 (stereo not shown) | 105% and 125%
Cn1cc(-c2ccc3occ(-c4cccc(-c5ccncc5)c4)c3n2)cn1 | 109%
COc1cc(Nc2ncc3c(n2)-c2ccc(Cl)cc2C(c2c(F)cccc2OC)=NC3)ccc1C(=O)O | 17.7%
CC(=O)NCC(=O)N1[C@@H]2CC[C@H]1c1ccc(Nc3ncc(C(F)(F)F)c(NC4CCC4)n3)cc12 | 18.2% and 11.4%
COc1ccc2c(O[C@@H]3C[C@H]4C(=O)N[C@]5(C(=O)O)CC5/C=C\CCCCC[C@H](NC(=O)OC5CCCC5)C(=O)N4C3)cc(-c3csc(NC(=O)C(C)C)n3)nc2c1C (stereo partly shown) | 93% and 105%
CCOc1cn(-c2ccc(F)cc2C)nc1C(=O)Nc1ccc(Oc2ccnc3cc(OC)c(OC)cc23)c(F)c1 | 97.4% and 122%
O=C(NCc1ccccc1)c1ccc(S(=O)(=O)NCc2ccccc2)cc1 | 125% and 115%
CCC(=N\O)/C(C)=C/c1ccc(F)cc1 | 114% and 90.9%
Cl.Cl.NC1(c2ccc(-c3nc4ccn5c(=O)[nH]nc5c4cc3-c3ccccc3)cc2)CCC1 | 80.1% and 112%
Cc1cc2c(-c3ccco3)cnc(N[C@@H]3CCN(C)C[C@H]3C(=O)NC3CCCCC3)c2[nH]c1=O | 74.9%
COc1cccc2c1C(=O)c1c(O)c3c(c(O)c1C2=O)C[C@@](O)(C(=O)CO)C[C@@H]3O[C@H]1C[C@H](N)[C@H](O)[C@H](C)O1 | 14.1%
COc1cc(Nc2nccc(-c3cnn4nc(OC)ccc34)n2)cc(C(F)(F)F)c1 | 57%

Set 2
Compound: C=CC(=O)N1CCC[C@@H](n2nc(-c3ccc(Oc4ccccc4)cc3)c3c(N)ncnc32)C1
Action: inhibitor
Concentration: 1 µM
target | observed | inhibition [%]
CAMK2G (Homo sapiens, UniProt Q13555) | enzyme activity | 0
WNK1 (Homo sapiens, UniProt Q9H4A3) | enzyme activity | 23
EGFR (Homo sapiens, UniProt P00533, del747-750/T751S) |  | 97
NEK7 (Homo sapiens, UniProt Q8TDX7) | enzyme activity | 4
BLK (Homo sapiens, UniProt P51451) | enzyme activity | 100
Ribosomal protein S6 kinase alpha-2, kinase domain 2 (RPS6KA2, Homo sapiens, UniProt Q15349) |  | 13
SRPK1 (Homo sapiens, UniProt Q96SB4) | enzyme activity | 2
PRKD3 (Homo sapiens, UniProt O94806) | enzyme activity | 21
Tyrosine-protein kinase ABL1, non-phosphorylated (ABL1, Homo sapiens, UniProt P00519, T315I) |  | 21

Set 3
Target: Protein-tyrosine kinase 6 (PTK6, Homo sapiens, UniProt Q13882)
Sequence of UniProt Q13882 (whole entry, looked up): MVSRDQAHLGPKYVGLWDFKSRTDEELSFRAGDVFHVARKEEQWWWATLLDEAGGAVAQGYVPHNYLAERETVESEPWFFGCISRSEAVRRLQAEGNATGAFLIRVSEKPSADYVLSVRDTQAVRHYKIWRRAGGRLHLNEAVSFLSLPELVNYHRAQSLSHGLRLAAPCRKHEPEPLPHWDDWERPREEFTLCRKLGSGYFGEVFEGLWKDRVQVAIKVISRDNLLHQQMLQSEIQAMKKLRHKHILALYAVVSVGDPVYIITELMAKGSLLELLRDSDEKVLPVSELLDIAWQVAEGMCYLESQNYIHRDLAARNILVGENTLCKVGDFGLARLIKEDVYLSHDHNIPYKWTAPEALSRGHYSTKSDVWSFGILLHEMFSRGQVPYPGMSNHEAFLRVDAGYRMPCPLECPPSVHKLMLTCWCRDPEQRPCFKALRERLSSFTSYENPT
Observed: enzyme activity
Action: inhibitor
Concentration: 0.5 µM
Relative to: control
Compound | remaining activity [%]
N#C/C(=C(/N)SC1C=CC=CC1)c1cccc(C(O)c2ccncc2)c1 (stereo not shown) | 103
COc1cc2c(N3CCN(C(=O)Nc4ccc(OC(C)C)cc4)CC3)ncnc2cc1OCCCN1CCCCC1 | 92.9
O=c1c(-c2ccc(F)cc2)c(-c2ccncc2)[nH]n1-c1ccc(Cl)cc1 | 57.5
N#CC(c1ccnc(NCCc2cccnc2)n1)c1nc2ccccc2s1 (stereo not shown) | 46.5
O=C1NC(=O)/C(=C/c2ccc3c(c2)OC(F)(F)O3)S1 | 94.8
O=C(O)/C=C/c1cc(Br)c(Br)c(Br)c1Br | 95
O=C(c1ccccc1)c1ccc(N2CCOCC2)cc1O | 98.2
C[C@@H](N)[C@H]1CC[C@H](C(=O)Nc2ccncc2)CC1 | 86.3
CC(C)N(CCC(=O)c1ccc2ccccc2c1)Cc1ccccc1 | 96.4
CCN(CC)CCCCN1c2ccccc2Oc2ccc(Cl)cc21 | 95
NC(=O)c1cccc(-c2cc(Nc3ccc(OC(F)(F)F)cc3)ncn2)c1 | 94.5
FC(F)(F)c1ccc(/C=C/c2nc(COc3ccc(CCCCn4ccnn4)cc3)co2)cc1 | 97.8
CNc1cc2c(Nc3cccc(Br)c3)ncnc2cn1 | 54.4
O=Nc1c(-c2c(O)[nH]c3ccccc23)[nH]c2ccccc12 | 97.2
CCCCc1c(-c2ccc(O)cc2)[nH]c2nccnc12 | 29.7
c1cc(-c2cnn3cc(-c4ccc(OCCN5CCCCC5)cc4)cnc23)ccn1 | 37.2
CC(C)n1cnc2c(Nc3cccc(Cl)c3)nc(NCCO)nc21 | 90.2
COc1cc2c(Nc3ccc(Br)cc3F)ncnc2cc1OCC1CCN(C)CC1 | 7.28
NC(=O)c1ccc(-c2nc(-c3ccc4c(c3)OCCO4)c(-c3ccccn3)[nH]2)cc1 | 91.3
CC(C)(C)c1nc2c3cc[nH]c(=O)c3c3cc(F)ccc3c2[nH]1 | 88
O=C1c2ccccc2-c2nc3nnnn3nc21 | 111
Nc1nc(Nc2ccc(S(N)(=O)=O)cc2)nn1C(=S)Nc1c(F)cccc1F | 34.8

Set 4
SMILES: CN1CCN(C(=O)c2ccc(NC(=O)Nc3ccc(N(C)c4ccnc(Nc5ccc(CS(C)(=O)=O)cc5)n4)cc3)cc2)CC1
Method: competitive binding panel
Concentration: 1 µM
Relative to: vehicle
target | item | remaining binding [%]
DSTYK (Homo sapiens, UniProt Q6XUX3) | RIPK5 | 5.4
SRPK2 (Homo sapiens, UniProt P78362) |  | 80
NEK11 (Homo sapiens, UniProt Q8NG66) |  | 100
MAP3K5 (Homo sapiens, UniProt Q99683) | ASK1 | 100
PRKCQ (Homo sapiens, UniProt Q04759) |  | 51
NEK5 (Homo sapiens, UniProt Q6P3R8) |  | 82
ERBB2 (Homo sapiens, UniProt P04626) |  | 100
PDPK1 (Homo sapiens, UniProt O15530) |  | 68

Repeated from above (set 3):
Compound | remaining activity [%]
O=Nc1c(-c2c(O)[nH]c3ccccc23)[nH]c2ccccc12 | 97.2
CCCCc1c(-c2ccc(O)cc2)[nH]c2nccnc12 | 29.7
c1cc(-c2cnn3cc(-c4ccc(OCCN5CCCCC5)cc4)cnc23)ccn1 | 37.2
